Experimental data collected from several papers.
Compare with care: the assays were run in different laboratories. ± gives the spread as reported.
Chain of UniProt P06276 (whole entry, looked up): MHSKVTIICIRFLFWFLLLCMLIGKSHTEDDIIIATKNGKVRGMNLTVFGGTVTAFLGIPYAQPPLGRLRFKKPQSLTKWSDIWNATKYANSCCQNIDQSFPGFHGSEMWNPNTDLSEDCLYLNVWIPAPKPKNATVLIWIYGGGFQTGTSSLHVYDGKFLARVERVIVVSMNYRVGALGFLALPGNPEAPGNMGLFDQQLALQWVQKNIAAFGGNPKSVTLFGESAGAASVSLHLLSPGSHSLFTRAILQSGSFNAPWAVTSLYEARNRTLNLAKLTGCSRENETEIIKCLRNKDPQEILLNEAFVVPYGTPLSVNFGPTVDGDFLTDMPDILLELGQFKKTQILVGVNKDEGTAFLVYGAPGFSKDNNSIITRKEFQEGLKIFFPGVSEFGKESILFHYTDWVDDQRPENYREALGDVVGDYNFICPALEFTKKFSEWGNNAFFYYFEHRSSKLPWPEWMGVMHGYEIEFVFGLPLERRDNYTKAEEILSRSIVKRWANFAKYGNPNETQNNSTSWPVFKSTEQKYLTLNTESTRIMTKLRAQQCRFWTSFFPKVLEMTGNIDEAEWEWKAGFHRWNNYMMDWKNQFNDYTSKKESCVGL

CC[C@H](C)[C@H](NC(=O)[C@H](Cc1ccccc1)NC(=O)[C@H](CCC(=O)O)NC(=O)[C@H](CCCNC(=N)N)NC(=O)[C@H](C)NC(=O)[C@H](C)NC(=O)[C@H](CCC(N)=O)NC(=O)[C@H](CCC(=O)O)NC(=O)[C@H](CCC(=O)O)NC(=O)[C@H](CC(C)C)NC(=O)[C@H](Cc1ccc(O)cc1)NC(=O)[C@H](CO)NC(=O)[C@H](CO)NC(=O)[C@@H](NC(=O)[C@H](CC(=O)O)NC(=O)[C@H](CO)NC(=O)[C@@H](NC(=O)[C@H](Cc1ccccc1)NC(=O)[C@@H](NC(=O)CNC(=O)[C@H](CCC(=O)O)NC(=O)[C@H](C)NC(=O)CCc1cnc[nH]1)[C@@H](C)O)[C@@H](C)O)C(C)C)C(=O)N[C@@H](C)C(=O)N[C@@H](Cc1c[nH]c2ccccc12)C(=O)N[C@@H](CC(C)C)C(=O)N[C@H](C(=O)N[C@@H](CCCNC(=N)N)C(=O)NCC(=O)N[C@@H](CCCNC(=N)N)C(=O)N[C@@H](CCCCNC(=O)COCCOCCNC(=O)COCCOCCNC(=O)CC[C@H](NC(=O)CCCCCCCCCCCCCCCCC(=O)O)C(=O)O)C(=O)NCC(=O)NCC(=O)N[C@@H](CO)C(=O)N[C@@H](CCSC)C(=O)N[C@H](C(=O)N[C@@H](CCCCNc1c(NCCCCCN(O)C(=O)CCC(=O)NCCCCCN(O)C(=O)CCC(=O)NCCCCCN(O)C(C)=O)c(=O)c1=O)C(=O)O)C(C)C)C(C)C [zirconium-89 labelled] gave a tissue uptake of 0.101 %ID/g (ex vivo gamma counting; male Sprague-Dawley rats, stomach; intravenous, 5 MBq (1 nmol), 72 h).
COc1ccnc(C(=O)N[C@H]2COC(=O)[C@H](Cc3ccccc3)[C@@H](OC(=O)C(C)C)[C@H](C)OC2=O)c1OCOC(=O)C(C)C gave an LOAEL of 192 mg/kg bw/day (mouse; oral, 90 days).
CCOc1cc(Oc2ccc(C(F)(F)F)cc2Cl)ccc1[N+](=O)[O-]: “body weight gain” 63.5% (rat male; 7.5 mg/kg, 8 days).
COc1cc2c(Oc3ccc4[nH]c(C)cc4c3F)ccnc2cc1OCC1(N)CC1 gave a Diarrhea incidence of 63.6% (paediatric recurrent refractory sarcoma; 12 mg).
CO[C@H]1C[C@@H]2CC[C@@H](C)[C@@](O)(O2)C(=O)C(=O)N2CCCC[C@H]2C(=O)O[C@H]([C@H](C)C[C@@H]2CC[C@@H](OC(=O)NCCOCCOCCOCCOCCOCCOCCOCCOCCC(=O)N3CCc4cc(Cn5nc(-c6ccc7oc(N)nc7c6)c6c(N)ncnc65)ccc4C3)[C@H](OC)C2)C[C@@H](O)[C@H](C)/C=C(\C)[C@@H](O)[C@@H](OC)C(=O)[C@H](C)C[C@H](C)/C=C/C=C/C=C/1C: “nausea TEAE incidence” 53% (dose-escalation trial; patients with advanced solid tumours; intravenous, all doses weekly, any grade).
For Cn1cc(-c2nc(N[C@@H]3CCCC[C@@H]3N)c(F)c3c2C(=O)NC3)cn1, “hemorrhagic adverse events” read 20% (measured: Gastrointestinal haemorrhage; patients with relapsed or refractory AML; oral, 140 mg once daily).
Under “dose-limiting toxicity anaemia”, Cn1cncc1-c1c(F)cncc1NC(=O)c1c(N)nn2cc(F)cnc12 is recorded as 0% (human patients; oral, 220 mg once daily, 21 days).
For O=S(=O)(Nc1ccccc1)c1ccc(NC(=S)Nc2ccccc2)cc1, the haematocrit was 45% (male mouse, blood; oral, 5 mg/kg daily, 14 days).
The glucose of Clc1ccc(-c2ccccc2)cc1 is reported as 165 ± 26 mg/dL (Sprague-Dawley rats, female, serum; inhalation, 23 µg/rat, 2 h after exposure).
With CN[C@H]1CC[C@@H](c2ccc(Cl)c(Cl)c2)c2ccccc21 the Tmax was 15 min (CD-1 mouse, male, plasma; intraperitoneal, 0.3 mg/kg).
For c1ccc2c(c1)ccc1c3ccccc3ccc21, the log K(PDMS-water) was 4.72 ± 0.05 (fresh water; 12 (unit not given), 20 °C, S30-1 sampler, 30 µm).
With CC(C)C[C@@H]1NC(=O)CNC(=O)[C@H](CC(N)=O)NC(=O)[C@H](CCCNC(=N)N)NC(=O)[C@H]([C@@H](C)O)NC(=O)[C@@H]2CSSC[C@@H]3NC(=O)[C@H]([C@@H](C)O)NC(=O)CNC(=O)CNC(=O)[C@H](C(C)C)NC(=O)[C@@H]4CSSC[C@H](NC(=O)[C@H]([C@@H](C)O)NC(=O)[C@H](CSSC[C@H](NC(=O)[C@H](C(C)C)NC(=O)[C@@H]5CCCN5C1=O)C(=O)NCC(=O)N[C@@H](CCC(=O)O)C(=O)N[C@@H]([C@@H](C)O)C(=O)N4)NC(=O)CNC(=O)[C@@H]1CCCN1C(=O)[C@H]([C@@H](C)O)NC(=O)[C@H](CC(N)=O)NC3=O)C(=O)N[C@@H](CCCCN)C(=O)N[C@@H](Cc1c[nH]c3ccccc13)C(=O)N1CCC[C@H]1C(=O)N[C@@H](C(C)C)C(=O)N2 the remaining peptide was 89.5 ± 0.2% (HPLC; ammonium bicarbonate; 180 µM, 7 days, pH 9.0, 25 °C, deamidation stability).
c1cc2ccc3cccc4ccc(c1)c2c34: “literature range factor” 4 (polyethylene-water partitioning; PAH compilation; relative to: maximum over minimum K).
Under “grade ≥3 hypocalcaemia”, NC(=O)[C@H]1CCN(c2ncnc(N)c2F)C[C@@H]1N1CCC[C@@H](Nc2cc(Cl)cc(C(F)(F)F)c2)C1=O is recorded as 10% (B-cell malignancy patients; oral, 41 mg twice daily, dose).
COc1ccc2nc3cc(Cl)ccc3c(Nc3cc(CN4CCCC4)c(O)c(CN4CCCC4)c3)c2n1 gave a neutrophils of 14.8% (mouse, blood; oral, 57 mg/kg, tolerability, mean).
With Clc1ccc(Cl)c(-c2ccccc2Cl)c1 the log K(PDMS-water) was 4.99 ± 0.05 (fresh water; 20 °C, S30-1 sampler, 30 µm).
For CCC[C@H]1CC[C@H](c2ccc(-c3ccc(F)cc3)cc2)CC1, the concentration was 0.95 ng/mL (measured: compound; human pregnant women, female fetuses, maternal serum; dose not given, paired maternal-cord samples, mean).
For Fc1ccc([C@@H]2CCNC[C@H]2COc2ccc3c(c2)OCO3)cc1, the IC50 was 10 µM (Plasmodium falciparum; D10).
CC(C)[C@@H]1NC(=O)CNC(=O)[C@H](CC(N)=O)NC(=O)[C@H](CCCNC(=N)N)NC(=O)[C@H](Cc2ccc(O)cc2)NC(=O)[C@H](C(C)C)NC(=O)[C@@H](NC(=O)[C@@H](NC(=O)[C@H](CC(N)=O)NC(=O)[C@H](Cc2c[nH]c3ccccc23)NC(=O)[C@H](C)NC(=O)[C@H](Cc2ccccc2)NC(=O)CN)C(C)C)CSSC[C@@H](C(=O)N[C@@H](Cc2cnc[nH]2)C(=O)N[C@@H](CCCNC(=N)N)C(=O)N[C@@H](CCCNC(=N)N)C(=O)N[C@@H](C)C(=O)N[C@@H](CC(N)=O)C(N)=O)NC(=O)[C@H](C(C)C)NC(=O)[C@H](CCCNC(=N)N)NC1=O has a haematocrit of 40.9 ± 1.13% (ICR mouse, blood; intramammary, 10 mg/kg, day 5, 3 d dosing).
O=C(Nc1ccccc1)C1CCN(C(=O)Oc2cccnc2)CC1 — result for “change in alertness score”: 3.9 (Bond-Lader VAS; healthy women; oral, 20 mg; relative to: pre-dose baseline, direction not given).
COc1cccc2c1CCCC2CCCN1CCN(C2CCCCC2)CC1 (centres unmarked): “elimination rate constant” 6.22e-05 s⁻¹ (CD-1 mouse, male, lung; intraperitoneal, 30 mg/kg).
O=C1Nc2cc3[nH]nc(-c4ccncc4)c3cc2CN1Cc1ccccc1: “patients with cough” 0% (CTCAE v4.03; advanced solid tumour patients; intravenous, 4.8 mg/kg, schedules 1/2).
CC(C)=CC1C(C(=O)OC(C#N)c2cccc(Oc3ccccc3)c2)C1(C)C (centres unmarked) — result for “enzyme contribution to clearance”: 0.62% (measured: CYP2C19; human, age 6 months).
With c1ccc2sc(C3(N4CCCCC4)CCCCC3)cc2c1 the IC50 was 1.88 ± 0.74 µM (Cholinesterase (BCHE, Homo sapiens, UniProt P06276); inhibitor, fluorometric).
COc1ncccc1-c1cnn2ccc(N3CCN(C(=O)OC(C)C)CC3)nc12 gave a drug concentration of 11 µM (mouse, SNL model, brain; oral, 10 mg/kg, 120 min).
N=C(N)NCCNC(=O)C1(Nc2ccccc2)CCN(Cc2ccccc2)CC1: “unchanged urinary recovery” 0.6 ± 0.3% (Sprague-Dawley rat, female, urine; oral, 50 mg/kg, time not given).
For CCc1ccc(CC/C=C/c2ccc3c(c2)C(=O)CC3)cc1, the Erythrocyte percentage was 12.9% (Sprague-Dawley rat, male; oral, 120 mg/kg/day, 14 days).
CC[C@H](C)[C@H](N)C(=O)N[C@H]1CSSC[C@@H](C(=O)N[C@H](C(N)=O)[C@@H](C)O)NC(=O)[C@H](CCCN=C(N)N)NC(=O)[C@H](Cc2cnc[nH]2)NC(=O)[C@H](Cc2cnc[nH]2)NC(=O)CNC(=O)[C@H](Cc2c[nH]c3ccccc23)NC(=O)[C@H](CC(=O)O)NC(=O)[C@H](CCC(N)=O)NC(=O)[C@H](C(C)C)NC(=O)[C@H](C(C)C)NC1=O: “log retention factor” -0.44 (isocratic RP-HPLC; C18 column; pH 7.4, 25 °C, elution method 2; higher = more lipophilic).
CCC1(C2=NCCN2)Cc2ccccc2O1 (centres unmarked) gave an IC50 of 10 µM (Plasmodium falciparum; Dd2).

Excerpt of the above:
N=C(N)NCCNC(=O)C1(Nc2ccccc2)CCN(Cc2ccccc2)CC1: “unchanged urinary recovery” 0.6 ± 0.3% (Sprague-Dawley rat, female, urine; oral, 50 mg/kg, time not given).
CC[C@H](C)[C@H](N)C(=O)N[C@H]1CSSC[C@@H](C(=O)N[C@H](C(N)=O)[C@@H](C)O)NC(=O)[C@H](CCCN=C(N)N)NC(=O)[C@H](Cc2cnc[nH]2)NC(=O)[C@H](Cc2cnc[nH]2)NC(=O)CNC(=O)[C@H](Cc2c[nH]c3ccccc23)NC(=O)[C@H](CC(=O)O)NC(=O)[C@H](CCC(N)=O)NC(=O)[C@H](C(C)C)NC(=O)[C@H](C(C)C)NC1=O: “log retention factor” -0.44 (isocratic RP-HPLC; C18 column; pH 7.4, 25 °C, elution method 2; higher = more lipophilic).
